Results gathered from unrelated publications.
Lines come from different studies, so protocols differ. ± marks the error that the study gave.
Cell line: HCT-116

Structure (SMILES) = N#CC(=Cc1cccs1)C(=O)Nc1nnc(NC(=O)c2ccccc2)s1; test = cell growth or viability, MTT; setting = 48 h; IC50 = 34.1 µM
Structure (SMILES) = CNC(=O)c1cc(Oc2ccc(NC(=O)Nc3ccc(Cl)c(C(F)(F)F)c3)cc2)ccn1; test = cell growth or viability, MTT; setting = 48 h; IC50 = 0.176 µM
Structure (SMILES) = COc1cc(-c2ccc(-c3nnc(SC)o3)c(C)n2)cc(OC)c1OC; test = cell growth or viability, MTT; IC50 = 14.1 µM
Structure (SMILES) = N#CC(C(=O)Nc1nnc(NC(=O)c2ccccc2)s1)=C1Nc2ccccc2N1; test = cell growth or viability, MTT; setting = 48 h; IC50 = 56.9 µM
Structure (SMILES) = O=c1[nH]c2ccccc2nc1/C=C/c1ccccn1; test = cell growth or viability, MTT; setting = 72 h; IC50 = 0.27 µM
Structure (SMILES) = CSC(SC)=C(C#N)C(=O)Nc1nnc(NC(=O)c2ccccc2)s1; test = cell growth or viability, MTT; setting = 48 h; IC50 = 14.7 µM
Structure (SMILES) = Cn1c(=O)c(/C=C/c2ccc(F)cc2)nc2ccccc21; test = cell growth or viability, MTT; setting = 72 h; IC50 = 5.28 µM
Structure (SMILES) = Cc1ccc(NCC(=O)n2ncc3c2ncn2[nH]c(=S)nc32)cc1; test = cell growth or viability, MTT; setting = 48 h; IC50 = 0.767 µM
Structure (SMILES) = O=c1c(/C=C/c2ccccc2Br)nc2ccccc2n1Cc1ccccc1; test = cell growth or viability, MTT; setting = 72 h; IC50 = > 50 µM
Structure (SMILES) = COc1ccc(NC(=O)NNC(=O)CSc2nc3ccccc3c(=O)n2-c2ccc(Cl)cc2)cc1; IC50 = 51.5 ± 2.7 µM
Structure (SMILES) = Cc1ccc(C(C)C)cc1.Cc1ccc(C(C)C)cc1.[Cl][Ru][Cl].[Cl][Ru][Cl]; test = cell growth or viability, trypan blue; setting = 48 h; IC50 = 73.7 µM
Structure (SMILES) = CCSc1nnc(-c2ccc(-c3cc(OC)c(OC)c(OC)c3)nc2C)o1; test = cell growth or viability, MTT; IC50 = 9.74 µM
Structure (SMILES) = N=c1c2cnn(C(=O)CNc3ccc(F)cc3)c2ncn1N[C@@H]1O[C@H](CO)[C@@H](O)[C@H](O)[C@H]1O; test = cell growth or viability, MTT; setting = 48 h; IC50 = 0.503 µM
Structure (SMILES) = COc1cc(-c2ccc(C(=O)N/N=C/c3ccc([N+](=O)[O-])cc3)c(C)n2)cc(OC)c1OC; test = cell growth or viability, MTT; IC50 = 4.5 µM
Structure (SMILES) = O=C(/C=C/c1ccc(F)cc1)c1nc2ccccc2n1Cc1cn([C@@H]2OC[C@@H](O)[C@H](O)[C@H]2O)nn1; test = cell growth or viability, LDH; setting = 48 h; IC50 = 5.1 µM
Structure (SMILES) = Cc1ccc(NCC(=O)n2ncc3c(=N)n(N)cnc32)cc1; test = cell growth or viability, MTT; setting = 48 h; IC50 = 0.51 µM
Structure (SMILES) = COc1ccc(-n2c(SCC(=O)NNC(=O)Nc3ccc(C)cc3)nc3ccccc3c2=O)cc1; IC50 = 57.1 ± 3.2 µM
Structure (SMILES) = CN1CCN(c2nc3ccccc3nc2/C=C/c2ccccc2F)CC1; test = cell growth or viability, MTT; setting = 72 h; IC50 = 1.11 µM
Structure (SMILES) = O=C(OC[C@H]1O[C@@H](OC(=O)c2cc(O)c(O)c(OC(=O)c3cc(O)c(O)c(O)c3)c2)[C@H](OC(=O)c2cc(O)c(O)c(OC(=O)c3cc(O)c(O)c(O)c3)c2)[C@@H](OC(=O)c2cc(O)c(O)c(OC(=O)c3cc(O)c(O)c(O)c3)c2)[C@@H]1OC(=O)c1cc(O)c(O)c(OC(=O)c2cc(O)c(O)c(O)c2)c1)c1cc(O)c(O)c(OC(=O)c2cc(O)c(O)c(O)c2)c1; test = cell growth or viability; setting = 48 h; IC50 = ~20 µM
Structure (SMILES) = COc1ccc(-n2c(SC/C(=N/O)c3ccc(Cl)cc3)nnc2-c2nnn(-c3ccc(S(N)(=O)=O)cc3)c2C)cc1; test = cell growth or viability, MTT; setting = 48 h; IC50 = 9.9 µM
Structure (SMILES) = O=c1c(O)c(-c2ccc(O)c(O)c2)oc2cc(O)cc(O)c12; test = cell growth or viability, MTT; setting = 48 h; IC50 = 36 µg/mL
Structure (SMILES) = O=c1c(/C=C/c2ccccc2F)nc2ccccc2n1Cc1ccccc1; test = cell growth or viability, MTT; setting = 72 h; IC50 = > 50 µM
Structure (SMILES) = COc1c(-c2ccc(O)c(O)c2)oc2cc(O)cc(O)c2c1=O; test = cell growth or viability, MTT; setting = 48 h; IC50 = 34 µg/mL
Structure (SMILES) = N=c1c2cnn(C(=O)CNc3ccc(F)cc3)c2ncn1N; test = cell growth or viability, MTT; setting = 48 h; IC50 = 0.521 µM
Structure (SMILES) = N#CCC(=O)Nc1nnc(NC(=O)c2ccccc2)s1; test = cell growth or viability, MTT; setting = 48 h; IC50 = 25.7 µM
Structure (SMILES) = CN1CCC2(CC1)C/C(=N\N=C\c1ccc(O)cc1)c1ccccc1O2; setting = 48 h; IC50 = 2.68 ± 0.11 µM
Structure (SMILES) = Cc1ccc(-n2c(SCC(=O)NNC(=O)Nc3ccc(C(F)(F)F)cc3Cl)nc3ccccc3c2=O)cc1; IC50 = 45 ± 2.5 µM
Structure (SMILES) = O=c1[nH]c2ccccc2nc1/C=C/c1ccccc1Cl; test = cell growth or viability, MTT; setting = 72 h; IC50 = 7.17 µM
Structure (SMILES) = COc1ccc(NC(=O)NNC(=O)CSc2nc3ccccc3c(=O)n2-c2ccc(C)cc2)cc1; IC50 = 74.6 ± 4.1 µM
Structure (SMILES) = Cc1ccc(NCC(=O)n2ncc3c2ncn2nc(SCCO)nc32)cc1; test = cell growth or viability, MTT; setting = 48 h; IC50 = 0.099 µM
Structure (SMILES) = Cc1ccc(-n2c(SCC(=O)NNC(=O)NCc3ccccc3)nc3ccccc3c2=O)cc1; IC50 = 6.72 ± 0.3 µM
Structure (SMILES) = COc1cc(-c2ccc(C(=O)N/N=C/c3cc(C)ccc3C)c(C)n2)cc(OC)c1OC; test = cell growth or viability, MTT; IC50 = 5.2 µM
Structure (SMILES) = COc1ccc(C=C(C#N)C(=O)Nc2nnc(NC(=O)c3ccccc3)s2)cc1; test = cell growth or viability, MTT; setting = 48 h; IC50 = < 10 µM
Structure (SMILES) = CN1CCC2(CC1)C/C(=N\N=C\c1ccc(N(C)C)cc1)c1ccccc1O2; setting = 48 h; IC50 = 31 ± 1.32 µM
Structure (SMILES) = Cn1c(=O)c(/C=C/c2ccccc2Br)nc2ccccc21; test = cell growth or viability, MTT; setting = 72 h; IC50 = 19.5 µM
Structure (SMILES) = O=C(Nc1nnc(NC(=O)c2cc3ccccc3oc2=O)s1)c1ccccc1; test = cell growth or viability, MTT; setting = 48 h; IC50 = 47.2 µM
Structure (SMILES) = COc1cc(-c2ccc(C(=O)N/N=C/c3ccc(Cl)cc3)c(C)n2)cc(OC)c1OC; test = cell growth or viability, MTT; IC50 = 16.7 µM
Structure (SMILES) = O=C(CSc1nc2ccccc2c(=O)n1-c1ccc(Cl)cc1)NNC(=O)Nc1ccc(Cl)cc1; IC50 = 35 ± 2.2 µM
Structure (SMILES) = N#CCSc1nc2c3cnn(C(=O)CNc4ccc(F)cc4)c3ncn2n1; test = cell growth or viability, MTT; setting = 48 h; IC50 = 0.052 µM
Structure (SMILES) = Cc1cccc(C)c1NC(=O)NNC(=O)CSc1nc2ccccc2c(=O)n1-c1ccc(Cl)cc1; IC50 = 13.5 ± 1.1 µM
Structure (SMILES) = Cc1cc(C)n(-c2nnc(NC(=O)c3ccccc3)s2)c(=O)c1C#N; test = cell growth or viability, MTT; setting = 48 h; IC50 = 12.8 µM
Structure (SMILES) = CC(C)=CCC/C(C)=C/CC/C(C)=C/CC/C=C(\C)CC/C=C(\C)CCC=C(C)C; test = cell growth or viability, resazurin; setting = 96 h; IC50 = 9.96 µg/mL
Structure (SMILES) = O=C(CSc1nc2ccccc2c(=O)n1-c1ccc(Cl)cc1)NNC(=O)NCc1ccccc1; IC50 = 79.5 ± 4.3 µM
Structure (SMILES) = O=c1c(/C=C/c2ccccc2Cl)nc2ccccc2n1Cc1ccccc1; test = cell growth or viability, MTT; setting = 72 h; IC50 = > 50 µM

Excerpt of the above:
Structure (SMILES) = N#CC(C(=O)Nc1nnc(NC(=O)c2ccccc2)s1)=C1Nc2ccccc2N1; test = cell growth or viability, MTT; setting = 48 h; IC50 = 56.9 µM
Structure (SMILES) = O=c1[nH]c2ccccc2nc1/C=C/c1ccccn1; test = cell growth or viability, MTT; setting = 72 h; IC50 = 0.27 µM
Structure (SMILES) = CSC(SC)=C(C#N)C(=O)Nc1nnc(NC(=O)c2ccccc2)s1; test = cell growth or viability, MTT; setting = 48 h; IC50 = 14.7 µM
Structure (SMILES) = Cn1c(=O)c(/C=C/c2ccc(F)cc2)nc2ccccc21; test = cell growth or viability, MTT; setting = 72 h; IC50 = 5.28 µM
Structure (SMILES) = Cc1ccc(NCC(=O)n2ncc3c2ncn2[nH]c(=S)nc32)cc1; test = cell growth or viability, MTT; setting = 48 h; IC50 = 0.767 µM
